Measured values of several laboratories.
Parts stem from different laboratories: compare values within a part only.
Chain of UniProt P33981 (whole entry, looked up): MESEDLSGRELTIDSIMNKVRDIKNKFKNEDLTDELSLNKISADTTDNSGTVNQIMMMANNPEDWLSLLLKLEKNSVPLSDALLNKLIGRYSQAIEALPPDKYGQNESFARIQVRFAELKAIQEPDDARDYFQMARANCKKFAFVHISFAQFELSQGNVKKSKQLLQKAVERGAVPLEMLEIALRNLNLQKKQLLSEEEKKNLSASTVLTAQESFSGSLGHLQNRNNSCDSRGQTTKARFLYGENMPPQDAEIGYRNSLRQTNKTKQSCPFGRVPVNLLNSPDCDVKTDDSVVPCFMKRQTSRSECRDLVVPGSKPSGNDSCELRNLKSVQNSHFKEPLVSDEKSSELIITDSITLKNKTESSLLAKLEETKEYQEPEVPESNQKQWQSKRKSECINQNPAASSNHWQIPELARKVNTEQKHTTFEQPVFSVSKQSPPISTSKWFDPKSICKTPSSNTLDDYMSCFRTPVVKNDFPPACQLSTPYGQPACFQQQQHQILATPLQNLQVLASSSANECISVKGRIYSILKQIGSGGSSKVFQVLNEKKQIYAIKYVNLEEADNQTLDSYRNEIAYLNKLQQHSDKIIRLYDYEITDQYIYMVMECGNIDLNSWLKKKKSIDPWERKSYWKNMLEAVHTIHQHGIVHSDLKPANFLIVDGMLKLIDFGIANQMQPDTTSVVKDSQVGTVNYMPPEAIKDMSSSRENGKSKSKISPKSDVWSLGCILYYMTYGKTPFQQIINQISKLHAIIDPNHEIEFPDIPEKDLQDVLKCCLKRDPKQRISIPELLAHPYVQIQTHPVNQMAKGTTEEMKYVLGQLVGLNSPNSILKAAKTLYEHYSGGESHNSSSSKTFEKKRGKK
Chain of UniProt P47898 (whole entry, looked up): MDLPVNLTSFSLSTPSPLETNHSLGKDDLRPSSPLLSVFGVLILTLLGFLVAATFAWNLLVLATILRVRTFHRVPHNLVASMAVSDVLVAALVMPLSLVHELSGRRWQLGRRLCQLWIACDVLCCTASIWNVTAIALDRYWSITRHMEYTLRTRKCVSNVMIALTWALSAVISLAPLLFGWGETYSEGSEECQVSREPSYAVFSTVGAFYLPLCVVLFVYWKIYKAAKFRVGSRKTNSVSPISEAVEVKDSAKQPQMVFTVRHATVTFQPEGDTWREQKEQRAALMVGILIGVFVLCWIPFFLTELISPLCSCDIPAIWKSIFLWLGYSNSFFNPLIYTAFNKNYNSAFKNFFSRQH

Sample 1 — observed: enzyme activity; mode: inhibitor; concentration: 0.5 µM; reference: control
Target: Dual specificity protein kinase CLK3 (CLK3, Homo sapiens, UniProt P49761)
Target sequence (P49761 1-490): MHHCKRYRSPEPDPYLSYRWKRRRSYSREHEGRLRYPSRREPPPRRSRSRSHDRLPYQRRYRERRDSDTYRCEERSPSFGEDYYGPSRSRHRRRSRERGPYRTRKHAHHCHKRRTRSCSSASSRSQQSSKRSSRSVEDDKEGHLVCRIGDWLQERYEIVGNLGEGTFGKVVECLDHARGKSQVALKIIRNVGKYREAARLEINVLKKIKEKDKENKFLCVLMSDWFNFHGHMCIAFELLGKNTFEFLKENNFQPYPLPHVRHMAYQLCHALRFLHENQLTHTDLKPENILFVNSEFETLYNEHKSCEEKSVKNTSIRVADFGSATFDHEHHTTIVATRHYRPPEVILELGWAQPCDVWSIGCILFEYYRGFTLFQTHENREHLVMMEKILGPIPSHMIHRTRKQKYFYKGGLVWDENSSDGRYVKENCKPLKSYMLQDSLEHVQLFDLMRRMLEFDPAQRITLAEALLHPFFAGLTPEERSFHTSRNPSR
`Cc1nc(-c2ccccc2)c(-c2ccncc2)o1` gave a remaining activity of 90.6%.
The remaining activity of `O=C(Nc1cccc(Nc2cc(Nc3cccc(C(F)(F)F)c3)ncn2)c1)C1CC1` is reported as 102%.
With `COc1ccc(OC)c2c(=S)c3ccccc3[nH]c12` the remaining activity was 96.3%.
With `Nc1[nH]nc2nc3ccccc3nc12` the remaining activity was 94.3%.
The remaining activity of `Oc1ccc(-c2nc(-c3ccncc3)c(-c3ccc(F)cc3)[nH]2)cc1` is reported as 101%.
With `Cc1ccc(NC(=O)c2ccc(CN3CCN(C)CC3)cc2)cc1Nc1nc(-c2cccnc2)cs1` the remaining activity was 93.6%.
For `O=C1NC(=O)C(c2cn(CCCO)c3ncccc23)=C1c1cnccn1`, the remaining activity was 67.8%.
With `Cc1ccc(Nc2nccc(N(C)c3ccc4c(C)n(C)nc4c3)n2)cc1S(N)(=O)=O` the remaining activity was 107%.
`OCC(O)CCON=C1C(c2c(O)[nH]c3ccccc23)=Nc2ccccc21` (stereo not drawn) has a remaining activity of 16.1%.
`CCOC(=O)c1c(C)[nH]c(/C=C2\C(=O)Nc3ccccc32)c1C` gave a remaining activity of 100%.
For `COc1ccc(C(=O)Nc2sc3c(c2C(N)=O)CCCC3)cc1OC`, the remaining activity was 63%.
With `COc1cc2ncnc(Nc3ccc(Oc4ccccc4)cc3)c2cc1OC` the remaining activity was 101%.
For `O=S(=O)(c1cccc2cnccc12)N1CCCNCC1`, the remaining activity was 83.7%.
For `CC(C)[C@H](CO)Nc1nc(Nc2cc(N)cc(Cl)c2)c2ncn(C(C)C)c2n1`, the remaining activity was 85.5%.
The remaining activity of `CNC(=O)c1cc(Oc2ccc(NC(=O)Nc3ccc(Cl)c(C(F)(F)F)c3)cc2)ccn1` is reported as 99.3%.

Sample 2 — method: universal PBM; molecule type: double-stranded DNA, one strand shown; matrix: in vitro; concentration: 600 nM; reading: higher = stronger binding
Target: Sal-like protein 4, full length isoform A (SALL4, Homo sapiens, UniProt Q9UJQ4, residues 1-1053)
Chain of UniProt Q9UJQ4 (whole entry, looked up): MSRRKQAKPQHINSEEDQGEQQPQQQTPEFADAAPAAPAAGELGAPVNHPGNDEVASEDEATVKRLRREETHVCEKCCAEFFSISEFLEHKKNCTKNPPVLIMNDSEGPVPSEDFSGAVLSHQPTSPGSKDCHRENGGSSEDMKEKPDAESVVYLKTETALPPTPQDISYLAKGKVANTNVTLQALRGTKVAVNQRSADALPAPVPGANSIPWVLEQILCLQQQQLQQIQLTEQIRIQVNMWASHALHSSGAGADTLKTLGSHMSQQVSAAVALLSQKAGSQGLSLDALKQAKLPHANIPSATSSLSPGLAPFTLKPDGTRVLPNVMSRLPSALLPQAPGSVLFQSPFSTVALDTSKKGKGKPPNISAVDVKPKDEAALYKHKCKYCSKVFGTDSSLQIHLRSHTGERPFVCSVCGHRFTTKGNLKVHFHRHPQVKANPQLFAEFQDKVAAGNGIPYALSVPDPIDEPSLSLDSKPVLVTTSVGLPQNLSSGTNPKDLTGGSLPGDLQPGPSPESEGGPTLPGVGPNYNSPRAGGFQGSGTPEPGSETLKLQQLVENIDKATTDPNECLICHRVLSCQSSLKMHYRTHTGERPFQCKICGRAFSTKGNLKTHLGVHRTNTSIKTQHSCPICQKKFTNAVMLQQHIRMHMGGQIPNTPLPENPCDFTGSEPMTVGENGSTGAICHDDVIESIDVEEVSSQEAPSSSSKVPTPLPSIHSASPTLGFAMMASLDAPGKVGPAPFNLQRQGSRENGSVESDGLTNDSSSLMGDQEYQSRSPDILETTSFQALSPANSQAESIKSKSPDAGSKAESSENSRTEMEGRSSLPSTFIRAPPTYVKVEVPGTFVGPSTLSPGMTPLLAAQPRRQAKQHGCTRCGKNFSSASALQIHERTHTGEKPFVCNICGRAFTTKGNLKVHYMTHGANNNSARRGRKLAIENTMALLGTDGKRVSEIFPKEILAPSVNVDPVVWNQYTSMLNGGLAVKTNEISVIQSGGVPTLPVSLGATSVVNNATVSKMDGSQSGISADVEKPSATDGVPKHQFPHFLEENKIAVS
Setting: 8-mer, flanks averaged, mean of replicates
`CAGTCACG` has an E-score of -0.18.
`CGGGATCA` gave an E-score of -0.179.
`CTACAGGA` gave an E-score of 0.00636.
For `GTTCGATA`, the E-score was 0.151.
The E-score of `CCTCGACG` is reported as -0.352.
With `ACGGCGTA` the E-score was 0.0341.
`AGTCGAGG` has an E-score of -0.219.
The E-score of `CCGTGCTA` is reported as -0.153.

Sample 3 — method: RNA Bind-n-Seq; molecule type: RNA; matrix: in vitro; concentration: not given; setting: 4-mer, random 30-nt RNA, single round; added: RocA, ADP, phosphate; reference: input library; reading: higher = stronger binding
Target: ATP-dependent RNA helicase DDX3X, helicase core (DDX3X, Homo sapiens, UniProt O00571, residues 132-607)
Chain of UniProt O00571 (132-607, looked up): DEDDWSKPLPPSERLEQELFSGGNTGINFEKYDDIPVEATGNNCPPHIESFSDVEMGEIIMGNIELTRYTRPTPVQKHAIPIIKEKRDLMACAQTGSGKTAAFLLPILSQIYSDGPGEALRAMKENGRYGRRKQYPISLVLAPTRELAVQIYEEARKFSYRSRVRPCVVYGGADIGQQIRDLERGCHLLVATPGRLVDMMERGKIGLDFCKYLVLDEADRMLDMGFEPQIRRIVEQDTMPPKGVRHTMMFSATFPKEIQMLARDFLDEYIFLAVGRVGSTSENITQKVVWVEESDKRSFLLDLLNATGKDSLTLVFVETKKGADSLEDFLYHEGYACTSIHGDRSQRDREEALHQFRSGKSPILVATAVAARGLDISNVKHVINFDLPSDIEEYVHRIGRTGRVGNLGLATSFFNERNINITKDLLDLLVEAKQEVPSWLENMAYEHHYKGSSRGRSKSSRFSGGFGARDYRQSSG
For `AGUU`, the 4-mer enrichment was 1.36 fold.
The 4-mer enrichment of `GGUG` is reported as 1.31 fold.
`UAAU` gave a 4-mer enrichment of 0.933 fold.
`UUAU` gave a 4-mer enrichment of 0.963 fold.
The 4-mer enrichment of `CACA` is reported as 0.74 fold.
For `GGGA`, the 4-mer enrichment was 1.94 fold.
The 4-mer enrichment of `UACU` is reported as 0.684 fold.
For `AAUU`, the 4-mer enrichment was 1.01 fold.

Single results of other studies
With `C[C@@H]1CN(c2cc(-c3n[nH]c4ccc(OC5(C)CC5)cc34)ncn2)C[C@H](C)O1` the EC50 was greater than 50 µM (Dual specificity protein kinase TTK (TTK, Homo sapiens, UniProt P33981); target engagement, NanoBRET).
With `O=C1NC(c2ccccn2)Sc2ccccc21` (stereo not drawn) the inhibition was 1.92% (5-hydroxytryptamine receptor 5A (HTR5A, Homo sapiens, UniProt P47898); ligand displacement; 10 µM).

Excerpt of the above (sample 3):
The 4-mer enrichment of `CACA` is reported as 0.74 fold.
`UUAU` gave a 4-mer enrichment of 0.963 fold.
For `AAUU`, the 4-mer enrichment was 1.01 fold.
The 4-mer enrichment of `UACU` is reported as 0.684 fold.
`UAAU` gave a 4-mer enrichment of 0.933 fold.
